Experimental data collected from several papers.
Each numbered part is a random draw from the data of one study; scales do not carry over between parts. Positions count from the first letter of the parent shown.
Sequence of UniProt O15294 (whole entry, looked up): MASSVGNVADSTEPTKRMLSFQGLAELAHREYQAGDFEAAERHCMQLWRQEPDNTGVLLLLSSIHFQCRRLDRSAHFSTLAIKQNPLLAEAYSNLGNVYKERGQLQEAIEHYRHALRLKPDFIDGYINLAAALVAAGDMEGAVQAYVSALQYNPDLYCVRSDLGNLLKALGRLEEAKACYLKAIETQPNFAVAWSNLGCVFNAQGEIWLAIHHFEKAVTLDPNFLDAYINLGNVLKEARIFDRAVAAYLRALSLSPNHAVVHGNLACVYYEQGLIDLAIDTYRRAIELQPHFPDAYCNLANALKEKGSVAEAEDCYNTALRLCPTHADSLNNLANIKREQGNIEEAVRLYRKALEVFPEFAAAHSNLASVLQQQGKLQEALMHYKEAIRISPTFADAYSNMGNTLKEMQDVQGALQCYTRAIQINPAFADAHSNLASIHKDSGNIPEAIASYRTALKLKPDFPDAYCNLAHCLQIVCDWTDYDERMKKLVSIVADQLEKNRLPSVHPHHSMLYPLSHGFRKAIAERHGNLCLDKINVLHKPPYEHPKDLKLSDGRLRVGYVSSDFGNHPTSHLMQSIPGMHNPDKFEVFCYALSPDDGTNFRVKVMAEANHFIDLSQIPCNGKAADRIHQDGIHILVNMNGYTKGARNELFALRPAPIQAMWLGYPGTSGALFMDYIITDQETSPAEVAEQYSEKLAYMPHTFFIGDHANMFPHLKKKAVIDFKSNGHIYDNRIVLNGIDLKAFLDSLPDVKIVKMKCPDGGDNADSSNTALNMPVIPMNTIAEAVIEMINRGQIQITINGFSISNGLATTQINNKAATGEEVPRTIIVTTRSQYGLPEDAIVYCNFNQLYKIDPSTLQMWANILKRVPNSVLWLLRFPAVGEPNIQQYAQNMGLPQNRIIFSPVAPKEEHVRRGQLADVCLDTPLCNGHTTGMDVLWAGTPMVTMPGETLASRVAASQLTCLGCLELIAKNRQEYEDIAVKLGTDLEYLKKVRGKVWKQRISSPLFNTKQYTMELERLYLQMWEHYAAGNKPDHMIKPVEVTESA

Study 1
Variant: E151Q
Target: ABI1, truncated, D143A, DHFR fusion (Arabidopsis thaliana)
Method: DHFR PCA, deep sequencing
Sample: yeast
Setting: methotrexate growth selection, single substitutions
Baseline: wild-type fitted maximum
Direction: higher = stronger binding
Starting sequence: PYL1, truncated, DHFR fusion (Arabidopsis thaliana); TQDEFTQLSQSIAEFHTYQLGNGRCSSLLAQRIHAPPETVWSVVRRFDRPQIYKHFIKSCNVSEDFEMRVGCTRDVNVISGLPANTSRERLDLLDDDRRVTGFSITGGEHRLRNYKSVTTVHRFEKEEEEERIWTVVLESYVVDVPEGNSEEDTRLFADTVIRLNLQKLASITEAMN; partner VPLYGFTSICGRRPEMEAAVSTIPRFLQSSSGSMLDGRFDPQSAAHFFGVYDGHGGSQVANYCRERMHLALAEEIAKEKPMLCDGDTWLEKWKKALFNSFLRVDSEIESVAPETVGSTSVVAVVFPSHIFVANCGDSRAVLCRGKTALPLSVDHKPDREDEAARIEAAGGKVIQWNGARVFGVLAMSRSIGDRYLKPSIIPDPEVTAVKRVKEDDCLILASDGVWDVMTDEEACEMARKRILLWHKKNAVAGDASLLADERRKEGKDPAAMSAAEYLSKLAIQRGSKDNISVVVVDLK
setting	relative binding score [%]
added: (+)-ABA 2500 µM	92.6
added: (+)-ABA 710 µM	97.2
added: (+)-ABA 1.4 µM	42.8
added: (+)-ABA 4.8 µM	59.5
added: (+)-ABA 17 µM	76.1
added: (+)-ABA 58 µM	82.7

Study 2
Target: Transcriptional repressor CTCF (CTCF, Homo sapiens, UniProt P49711, residues 1-727, full length assumed)
Sequence of UniProt P49711 (whole entry, looked up): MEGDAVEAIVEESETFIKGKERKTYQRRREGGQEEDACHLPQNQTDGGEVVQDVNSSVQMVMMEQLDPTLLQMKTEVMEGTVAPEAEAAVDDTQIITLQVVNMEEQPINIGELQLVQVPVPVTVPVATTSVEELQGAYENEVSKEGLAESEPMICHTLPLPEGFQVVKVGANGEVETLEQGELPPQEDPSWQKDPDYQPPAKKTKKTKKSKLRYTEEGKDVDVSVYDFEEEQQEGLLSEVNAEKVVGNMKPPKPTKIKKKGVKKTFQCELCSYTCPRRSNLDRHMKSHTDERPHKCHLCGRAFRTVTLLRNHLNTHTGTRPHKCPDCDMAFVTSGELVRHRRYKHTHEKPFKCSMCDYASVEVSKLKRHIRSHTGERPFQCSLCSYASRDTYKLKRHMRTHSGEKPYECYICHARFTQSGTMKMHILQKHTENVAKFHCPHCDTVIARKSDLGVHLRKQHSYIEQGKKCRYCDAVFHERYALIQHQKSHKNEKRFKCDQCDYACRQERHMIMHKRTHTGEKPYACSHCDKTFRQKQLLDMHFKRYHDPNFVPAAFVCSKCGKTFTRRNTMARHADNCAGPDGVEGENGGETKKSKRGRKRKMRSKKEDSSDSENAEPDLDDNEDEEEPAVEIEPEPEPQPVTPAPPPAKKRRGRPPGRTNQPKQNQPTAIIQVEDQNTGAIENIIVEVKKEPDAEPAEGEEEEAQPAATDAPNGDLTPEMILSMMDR
Method: protein-binding microarray
Molecule type: double-stranded DNA, one strand shown
Sample: in vitro
Tested at: not given
Setting: k-mer, scored over probes, only values ≥0.25
Direction: higher = stronger binding
Sequence	E-score
ATCCTATA	0.304
CGCATACG	0.292
GCGCGCCA	0.278
GTTATACA	0.294
CCGCATAA	0.296
ATAATGGC	0.253
ATATTCGC	0.283
ATACCTAG	0.255

Further values, each from its own experiment
PDIA3: PDIA3 (Homo sapiens, UniProt P30101)
Substance	tested on	test	system	setting	how to read	quantity	value
PDIA4 (Homo sapiens, UniProt P13667)	PDIA3	cross-linking MS		hits only		interaction screen	cross-linked
TLHQQFYPPMYFIKV	UDP-N-acetylglucosamine--peptide N-acetylglucosaminyltransferase 110 kDa subunit (OGT, Homo sapiens, UniProt O15294)	binding, phage display NGS	peptide	concentration not given	baseline: input library	enrichment fold change	9.68
TIMM8B (Homo sapiens, UniProt Q9Y5J9)	TIMM13 (Homo sapiens, UniProt Q9Y5L4)	cross-linking MS		hits only		interaction screen	cross-linked
CALR (Homo sapiens, UniProt P27797)	PDIA3	cross-linking MS		hits only		interaction screen	cross-linked
SIN3A (Homo sapiens, UniProt Q96ST3)	ING2 (Homo sapiens, UniProt Q9H160)	cross-linking MS	cell fractions	added: DMTMM		cross-linked residues	K638 to E99

For quick reference, copied from above (further values, each from its own experiment):
Substance	tested on	test	system	setting	how to read	quantity	value
CALR (Homo sapiens, UniProt P27797)	PDIA3	cross-linking MS		hits only		interaction screen	cross-linked
TLHQQFYPPMYFIKV	UDP-N-acetylglucosamine--peptide N-acetylglucosaminyltransferase 110 kDa subunit (OGT, Homo sapiens, UniProt O15294)	binding, phage display NGS	peptide	concentration not given	baseline: input library	enrichment fold change	9.68
SIN3A (Homo sapiens, UniProt Q96ST3)	ING2 (Homo sapiens, UniProt Q9H160)	cross-linking MS	cell fractions	added: DMTMM		cross-linked residues	K638 to E99
